Measured values collected from several papers.
Each numbered part is a random draw from the data of one study; scales do not carry over between parts. Changes are numbered by the printed parent chain.

Block 1
Target: CCNA1, cyclin fold, Cln2 fusion (human)
Method: yeast growth competition, sequencing
Sample: yeast
Notes: weak parent motif
Reference: not given
Direction: higher = stronger binding
Starting sequence: PKN2 docking peptide (human); VSAVRKLDFSDTM; partner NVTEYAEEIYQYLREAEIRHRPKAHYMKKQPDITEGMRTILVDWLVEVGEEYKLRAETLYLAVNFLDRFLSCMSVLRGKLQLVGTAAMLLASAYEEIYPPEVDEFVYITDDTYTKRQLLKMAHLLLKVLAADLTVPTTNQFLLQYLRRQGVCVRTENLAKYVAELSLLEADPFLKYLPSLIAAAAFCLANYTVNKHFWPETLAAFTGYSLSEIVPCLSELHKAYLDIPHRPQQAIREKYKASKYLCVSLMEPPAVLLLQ
For `VSAVRPLDFSDTM [K6P]`, “normalised enrichment score” read -0.485.
Under “normalised enrichment score”, `VSAVRKIDFSDTM [L7I]` is recorded as 0.259.
For `VSAVRKLDFSLTM [D11L]`, “normalised enrichment score” read 0.329.
Under “normalised enrichment score”, `VSDVRKLDFSDTM [A3D]` is recorded as -0.292.
`VSAVRKLDRSDTM [F9R]`: “normalised enrichment score” 0.171.
Under “normalised enrichment score”, `VSAVRKLWFSDTM [D8W]` is recorded as -0.0183.
For `VSAVRKVDFSDTM [L7V]`, “normalised enrichment score” read -0.00556.
`VSAVRKLFFSDTM [D8F]`: “normalised enrichment score” -0.0545.
`VSAVRKLDISDTM [F9I]`: “normalised enrichment score” 0.329.
Under “normalised enrichment score”, `VSAVRKLDFSDWM [T12W]` is recorded as 0.719.

Block 2
Target: Protein C-ets-1 (ETS1, Homo sapiens, UniProt P14921, residues 1-441, K379A, full length assumed)
Method: protein-binding microarray
Molecule type: double-stranded DNA, one strand shown
Sample: in vitro
Tested at: not given
Notes: k-mer, scored over probes, only values ≥0.25
Direction: higher = stronger binding
Construct (chain): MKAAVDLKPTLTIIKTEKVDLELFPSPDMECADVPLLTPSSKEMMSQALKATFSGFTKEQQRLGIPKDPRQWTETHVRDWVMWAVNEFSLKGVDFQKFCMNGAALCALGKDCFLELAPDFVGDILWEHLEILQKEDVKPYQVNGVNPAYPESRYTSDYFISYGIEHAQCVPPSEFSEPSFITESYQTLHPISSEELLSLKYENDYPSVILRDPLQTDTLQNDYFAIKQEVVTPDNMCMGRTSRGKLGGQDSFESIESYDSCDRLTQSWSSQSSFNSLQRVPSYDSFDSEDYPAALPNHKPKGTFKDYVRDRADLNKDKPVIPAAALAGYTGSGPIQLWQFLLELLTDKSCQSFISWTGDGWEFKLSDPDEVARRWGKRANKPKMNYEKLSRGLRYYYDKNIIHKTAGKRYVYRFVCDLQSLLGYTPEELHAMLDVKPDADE
`CTTCCGGA` gave an E-score of 0.371.
With `ATACCGTC` the E-score was 0.278.
For `ATGGTTAG`, the E-score was 0.262.
`ATACAATA` gave an E-score of 0.287.
With `ACCCGGGA` the E-score was 0.304.
The E-score of `ACCGGTTC` is reported as 0.306.
`CCGGTCAG` has an E-score of 0.356.
`ATATGTGG` has an E-score of 0.258.
`CAACCGAC` has an E-score of 0.373.
The E-score of `GCGGGGAA` is reported as 0.278.
The E-score of `TCCCGACA` is reported as 0.271.
For `CGCATTTC`, the E-score was 0.278.
`GTGTATAA` has an E-score of 0.276.
The E-score of `TCCGGAAA` is reported as 0.341.
For `AACCGGAA`, the E-score was 0.457.
With `AACGATAT` the E-score was 0.312.
The E-score of `GCCCCGCC` is reported as 0.359.
The E-score of `ATTTCCCG` is reported as 0.267.

Block 3
Target: RNA binding protein fox-1 homolog 2, RRM domain, GST-SBP tag (RBFOX2, Homo sapiens, UniProt O43251-10, residues 100-194)
Method: RNA Bind-n-Seq
Molecule type: RNA
Sample: in vitro
Tested at: 365 nM
Notes: natural RNA segment, single round, ends assumed
Reference: no-protein control
Direction: higher = stronger binding
Residues (chain): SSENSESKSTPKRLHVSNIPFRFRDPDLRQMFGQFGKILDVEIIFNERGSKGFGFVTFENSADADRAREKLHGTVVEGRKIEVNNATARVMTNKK
For `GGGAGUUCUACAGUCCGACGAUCGGAACCUAGAGUUAGUCAGGAGUAAAGUCUGUCUAAGGGGAUCGGCAAGCUGCCAGACAACUCUGGCUCCUGUCAACCUUUUCACCUGGUGCCACAAAAGUAUUUCUGCUUGGAAUUCUCGGGUGCCAA`, “RBNS enrichment (R)” read 0.326.
`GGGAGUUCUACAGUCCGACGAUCGUGCCGCUUAUAGGCUGCACGCACCCCUUGCGGAUGUGCUAUCUGUGGGCAUUUCCUCCUCCUGUGAGCCUUGCAGCCCUUGUAUGGCGGCUUUGGUCUGGGCAGUGCAUUGGAAUUCUCGGGUGCCAA` — result for “RBNS enrichment (R)”: 0.819.
Under “RBNS enrichment (R)”, `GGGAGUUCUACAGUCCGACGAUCAGAACUUUGGGAGGCCAAGGCAGGUGGAUCACUUGAGGUCAGGAGUUCGAGACUAGCCUGGCCAACAUGGUGAAACCCCAUCUCUACUAAAAAUACAACAGCCAGGUGUGUGGAAUUCUCGGGUGCCAA` is recorded as 0.562.
`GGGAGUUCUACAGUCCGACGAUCCAGUAAGGAAGAGGGAAGCUGAAGAAGAGGAACCUCCCCUGCCUGCCCCUGAAGCCUGGAUCAUUCGUCUUCUCCUUUACCCACCCCUAAACCCCUGAUGCUGGUUAGGAUGGAAUUCUCGGGUGCCAA` — result for “RBNS enrichment (R)”: 0.924.
For `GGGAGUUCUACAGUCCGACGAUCCGAUGUGUAUUCUAUAAGAGAAUAGCUUCCUAAUUAAGUCGGUUUAGAAGAAGGUGCUGGUGUCACACAUUUUUUUAUAAAAAAUAAAUUUUACAUAGUGAAAUACACCAUGGAAUUCUCGGGUGCCAA`, “RBNS enrichment (R)” read 0.571.
For `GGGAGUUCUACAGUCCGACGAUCAGGGUUGUCAGUGCAUCAGAAAUACUUCUAAAUAGUGGUAAAAAUGCACAUGGUUAAUGCACAUGUUACUUUUAAAUCAUUAGGAUAUCCCUCACCUGUUCCUGAUGAAUUGGAAUUCUCGGGUGCCAA`, “RBNS enrichment (R)” read 0.572.
For `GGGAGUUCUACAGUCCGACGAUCUUUGUAGGAGACUUGCCAGAGCCGGGCACAUUGAGCUGUGCAACGCCGUGGGCUGCGUCCUUUGGUCCUGUCCCCGCAGCCCUGGCAGGGGGCAUGCGGUCGGGCAGGGGUGGAAUUCUCGGGUGCCAA`, “RBNS enrichment (R)” read 1.38.
For `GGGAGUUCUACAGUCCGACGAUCACAGUCGUACUUUUAUAAAGCGGUAUUUGGGUGUUUUUUCCCUCGAAUAGGUACUUUUGGAAGUUCAAAGCAAGUGGCAAACUUUCAUAUAAACAUGUUAAAUGCAGGAUUGGAAUUCUCGGGUGCCAA`, “RBNS enrichment (R)” read 0.292.

Other studies, line by line
For `PhoQ, residues 284 288 289 292 302 303 GASLAW`, the fold induction was 2.88 (PhoP, residues 12 14 15 18 19 TQAIL (Escherichia coli, UniProt P23836); Sort-seq, refers to: YFP reporter; E. coli; PhoQ-PhoP variant library, with: 10 µM Mg2+; reference: high Mg2+ state, higher = stronger signaling).
